Measurements gathered from unrelated publications.
Each line is one published result; not all experiments were run side by side. Several values in a cell are separate wells, animals, samples, runs or records.
rep papain-like protease: Replicase polyprotein 1ab, papain-like protease (rep, Severe acute respiratory syndrome coronavirus 2, UniProt P0DTD1)
rep main protease: Replicase polyprotein 1ab, main protease (rep, Severe acute respiratory syndrome coronavirus 2, UniProt P0DTD1)

Compound	target	assay	test system	setting	inhibition
COc1ccc(C(=O)Nc2ccccc2C(=O)NC(C(=O)NNC(=O)c2ccccc2O)C(C)C)cc1 (stereo not shown)	rep papain-like protease	enzyme activity, inhibitor	–	100 µg/mL	0%
CC1C(NC(=O)c2ccccc2[Se][Se]c2ccccc2C(=O)NC2CC3CC(C2C)C3(C)C)CC2CC1C2(C)C (stereo not shown)	rep main protease	enzyme activity, inhibitor	–	40 µM, mean of repeats	93.1%
O=C(NC1CCN(c2ncnc3[nH]cnc23)CC1)c1cccc(NS(=O)(=O)c2ccc(C(F)(F)F)cc2)c1	Replicase polyprotein 1ab, nsp14 with nsp10 (rep, Severe acute respiratory syndrome coronavirus 2, UniProt P0DTD1)	exonuclease activity	SARS-CoV-2	0.01221 µM	1.09%
O=C(NC1CCC(F)(F)CC1)C(c1cncnc1)N(C(=O)C(F)Cl)c1ccc(OC(F)(F)F)cc1 (stereo not shown)	rep main protease	enzyme activity	–	0.926 µM	100% and 90.3%
Nn1cnn2c(SCC(=O)Nc3nnc(SCC(=O)Nc4ccc(S(N)(=O)=O)cc4)s3)nnc12	rep papain-like protease	enzyme activity, inhibitor	–	100 µg/mL	0%
CC1(C)C2CCC(Cn3[se]c4ccccc4c3=O)C1C2 (stereo not shown)	rep main protease	enzyme activity, inhibitor	–	40 µM, mean of repeats	103%
Nc1cccc(-n2[se]c3ccccc3c2=O)c1	rep main protease	enzyme activity, inhibitor	–	0.3 µM	68.7%
COc1cc(Oc2c(O)cc(C)cc2OC)c(C(=O)O)c(C)c1O	rep main protease	enzyme activity, inhibitor, FRET	–	10 µM	70.7%
COc1ccc(NC(=O)Cn2c(=O)n(CCC(=O)NC3CCCC3)c(=O)c3cc(OC)c(OC)cc32)cc1	rep papain-like protease	enzyme activity, inhibitor	–	100 µg/mL	0%
C=C1CC[C@@H]2[C@](C)(COC(C)=O)[C@H](OC(C)=O)CC[C@@]2(C)[C@@H]1C[C@H](SC(=S)N1CCN(C(c2ccc(F)cc2)c2ccc(F)cc2)CC1)C1=CCOC1=O	rep main protease	enzyme activity, inhibitor, fluorescence	–	10 µM	> 50%
C[C@](C(=O)NC1CCOCC1)(c1cncnc1)N(C(=O)[C@H](F)Cl)c1ccc(OC(F)(F)Cl)cc1	rep main protease	enzyme activity, inhibitor	–	0.37 µM	99%
O=C(O)c1ccccc1[Se][Se]c1ccccc1C(=O)O	rep main protease	enzyme activity, inhibitor	–	40 µM, mean of repeats	23.5%
COC(=O)C(=O)/C(=C\c1ccc(-c2ccccc2[N+](=O)[O-])o1)C(=O)c1ccccc1	rep main protease	enzyme activity, inhibitor	–	100 µM	98.1%
CC(=O)Nc1ccc(S(=O)(=O)NNc2ncnc3sccc23)cc1	Replicase polyprotein 1ab, nsp3 macrodomain (rep, Severe acute respiratory syndrome coronavirus 2, UniProt P0DTD1)	ADP-ribosylhydrolase activity, gel-based	–	concentration not given	inhibited
C[C@](C(=O)NC1CCC(F)(F)CC1)(c1cncnc1)N(C(=O)[C@H](F)Cl)c1ccc(OC(F)(F)F)cc1	rep main protease	enzyme activity, inhibitor	–	0.309 µM	97.5%
O=C(Oc1cncc(Cl)c1)c1ccc2[nH]ccc2c1	rep main protease	enzyme activity, inhibitor, fluorescence	–	10 µM, pH 7.2	99%
CC[C@@H](C)[C@H](NC(=O)c1ccccc1[Se][Se]c1ccccc1C(=O)N[C@H](C(=O)OC)[C@H](C)CC)C(=O)OC	rep main protease	enzyme activity, inhibitor	–	40 µM	103%
O=C(NC1CCC(F)(F)CC1)C(c1cncnc1)N(C(=O)C(F)Cl)c1ccc(-c2cncs2)cc1 (stereo not shown)	rep main protease	enzyme activity, inhibitor	–	8.333 µM	102%
COc1cccc2c1C(=O)C=CC2=O	rep main protease	enzyme activity, inhibitor	–	0.1 µM	18.7%
O=C(Oc1cncc(Cl)c1)c1cc2ccccc2[nH]1	rep main protease	enzyme activity, inhibitor, fluorescence	–	10 µM, pH 7.2	100%
CC(C)[C@H](NC(=O)c1ccccc1[Se][Se]c1ccccc1C(=O)N[C@H](C(=O)O)C(C)C)C(=O)O	rep main protease	enzyme activity, inhibitor	–	40 µM, mean of repeats	104%
O=c1c2ccccc2sn1-c1ccccc1	rep main protease	enzyme activity, inhibitor	–	0.1 µM	28.2%
Nc1cccc(-n2[se]c3ccccc3c2=O)n1	rep main protease	enzyme activity, inhibitor	–	0.3 µM	46.9%
COc1ccc(-c2cc(=O)c3c(O)cc(O)cc3o2)cc1Oc1ccc(-c2cc(=O)c3c(O)cc(O)cc3o2)cc1	rep papain-like protease	enzyme activity, inhibitor	–	10 µM	65.6 to 98%
CCOC(=O)Cn1[se]c2ccccc2c1=O	rep main protease	enzyme activity, inhibitor	–	40 µM	105% and 103%
CC(=O)Nc1ccc(-c2cnc(N3C(=O)CSC3c3cc4ccccc4nc3Cl)s2)cc1 (stereo not shown)	rep papain-like protease	enzyme activity, inhibitor	–	10 µM	19.4%
CC1(C)C2CCC(CNC(=O)c3ccccc3[Se][Se]c3ccccc3C(=O)NCC3CCC4CC3C4(C)C)C1C2 (stereo not shown)	rep main protease	enzyme activity, inhibitor	–	40 µM, mean of repeats	69%
O=c1c2ccccc2[se]n1-c1ccc(Cl)cc1	rep main protease	enzyme activity, inhibitor	–	0.3 µM	49.2%

Some of these lines once more:
Compound	target	assay	test system	setting	inhibition
C[C@](C(=O)NC1CCOCC1)(c1cncnc1)N(C(=O)[C@H](F)Cl)c1ccc(OC(F)(F)Cl)cc1	rep main protease	enzyme activity, inhibitor	–	0.37 µM	99%
C[C@](C(=O)NC1CCC(F)(F)CC1)(c1cncnc1)N(C(=O)[C@H](F)Cl)c1ccc(OC(F)(F)F)cc1	rep main protease	enzyme activity, inhibitor	–	0.309 µM	97.5%
